Results gathered from unrelated publications.
Parts stem from different laboratories: compare values within a part only.
UniProt Q00535, sequence (whole entry, looked up): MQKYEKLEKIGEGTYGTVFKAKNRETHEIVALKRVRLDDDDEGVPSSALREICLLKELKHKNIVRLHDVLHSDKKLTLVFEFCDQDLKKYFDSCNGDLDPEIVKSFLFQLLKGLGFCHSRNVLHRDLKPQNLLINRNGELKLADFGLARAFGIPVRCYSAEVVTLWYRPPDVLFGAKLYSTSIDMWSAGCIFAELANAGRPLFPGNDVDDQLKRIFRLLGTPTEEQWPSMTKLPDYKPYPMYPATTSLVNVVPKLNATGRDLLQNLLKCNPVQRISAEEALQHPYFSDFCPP
UniProt Q9UIK4, sequence (whole entry, looked up): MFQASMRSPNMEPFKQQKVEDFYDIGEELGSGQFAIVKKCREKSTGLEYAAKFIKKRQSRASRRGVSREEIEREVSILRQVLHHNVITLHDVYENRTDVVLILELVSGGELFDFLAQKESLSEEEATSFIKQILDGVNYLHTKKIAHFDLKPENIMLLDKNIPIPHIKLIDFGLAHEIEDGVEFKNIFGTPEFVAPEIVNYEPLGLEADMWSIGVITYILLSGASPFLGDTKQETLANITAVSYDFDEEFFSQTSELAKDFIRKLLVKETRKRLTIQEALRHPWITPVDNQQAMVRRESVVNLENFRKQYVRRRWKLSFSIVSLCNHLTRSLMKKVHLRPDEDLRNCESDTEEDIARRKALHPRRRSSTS
UniProt Q13557, sequence (whole entry, looked up): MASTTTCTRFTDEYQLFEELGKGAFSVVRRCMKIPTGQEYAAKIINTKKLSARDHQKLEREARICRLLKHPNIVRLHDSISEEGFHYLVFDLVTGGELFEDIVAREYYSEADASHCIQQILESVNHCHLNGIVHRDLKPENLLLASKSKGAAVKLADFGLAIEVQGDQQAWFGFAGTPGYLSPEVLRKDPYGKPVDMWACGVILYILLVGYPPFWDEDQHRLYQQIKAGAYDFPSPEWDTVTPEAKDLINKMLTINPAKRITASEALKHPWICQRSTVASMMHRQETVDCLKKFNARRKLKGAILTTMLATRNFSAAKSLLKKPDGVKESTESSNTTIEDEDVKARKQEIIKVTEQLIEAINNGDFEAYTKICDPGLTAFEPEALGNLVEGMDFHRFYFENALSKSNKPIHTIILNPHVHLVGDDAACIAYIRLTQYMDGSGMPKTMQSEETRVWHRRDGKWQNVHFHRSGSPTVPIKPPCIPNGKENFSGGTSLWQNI
UniProt O96017, sequence (whole entry, looked up): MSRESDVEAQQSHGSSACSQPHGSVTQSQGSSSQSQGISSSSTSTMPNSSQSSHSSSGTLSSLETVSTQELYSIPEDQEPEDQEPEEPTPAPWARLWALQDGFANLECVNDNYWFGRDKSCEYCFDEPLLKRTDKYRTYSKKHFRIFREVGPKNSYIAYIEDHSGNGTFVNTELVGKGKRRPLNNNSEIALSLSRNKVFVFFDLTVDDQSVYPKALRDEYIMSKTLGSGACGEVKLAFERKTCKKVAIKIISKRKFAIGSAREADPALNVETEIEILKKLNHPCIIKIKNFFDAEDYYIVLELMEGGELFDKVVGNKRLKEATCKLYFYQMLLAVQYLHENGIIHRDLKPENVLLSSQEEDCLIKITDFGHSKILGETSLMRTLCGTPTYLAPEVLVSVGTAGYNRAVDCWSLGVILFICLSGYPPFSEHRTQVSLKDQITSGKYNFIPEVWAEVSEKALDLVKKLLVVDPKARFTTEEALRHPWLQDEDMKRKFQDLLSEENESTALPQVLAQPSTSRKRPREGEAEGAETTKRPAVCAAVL
UniProt P78356, sequence (whole entry, looked up): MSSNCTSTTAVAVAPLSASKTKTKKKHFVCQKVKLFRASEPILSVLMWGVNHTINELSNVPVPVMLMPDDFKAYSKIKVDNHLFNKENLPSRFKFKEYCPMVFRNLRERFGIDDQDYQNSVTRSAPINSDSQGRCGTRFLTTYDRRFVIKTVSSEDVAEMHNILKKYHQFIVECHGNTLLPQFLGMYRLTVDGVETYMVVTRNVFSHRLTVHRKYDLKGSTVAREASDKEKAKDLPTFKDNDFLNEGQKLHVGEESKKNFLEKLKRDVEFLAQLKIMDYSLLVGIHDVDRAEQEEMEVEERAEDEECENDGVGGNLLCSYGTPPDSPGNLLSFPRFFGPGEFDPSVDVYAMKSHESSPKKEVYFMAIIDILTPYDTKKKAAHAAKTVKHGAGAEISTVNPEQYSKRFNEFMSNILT
UniProt P07948, sequence (whole entry, looked up): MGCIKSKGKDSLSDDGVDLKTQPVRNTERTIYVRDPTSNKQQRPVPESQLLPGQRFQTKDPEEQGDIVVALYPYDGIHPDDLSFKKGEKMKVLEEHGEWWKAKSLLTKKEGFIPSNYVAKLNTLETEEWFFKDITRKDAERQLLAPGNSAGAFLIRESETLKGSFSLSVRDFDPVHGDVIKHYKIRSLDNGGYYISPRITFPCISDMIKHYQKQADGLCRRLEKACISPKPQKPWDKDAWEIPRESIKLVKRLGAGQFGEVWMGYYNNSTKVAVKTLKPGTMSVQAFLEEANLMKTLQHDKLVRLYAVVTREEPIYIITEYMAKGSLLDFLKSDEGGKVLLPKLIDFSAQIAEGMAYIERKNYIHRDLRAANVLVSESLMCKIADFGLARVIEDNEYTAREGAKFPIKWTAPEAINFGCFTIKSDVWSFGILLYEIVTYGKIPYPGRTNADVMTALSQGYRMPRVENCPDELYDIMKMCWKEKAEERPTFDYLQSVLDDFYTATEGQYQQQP
UniProt Q8NEB9, sequence (whole entry, looked up): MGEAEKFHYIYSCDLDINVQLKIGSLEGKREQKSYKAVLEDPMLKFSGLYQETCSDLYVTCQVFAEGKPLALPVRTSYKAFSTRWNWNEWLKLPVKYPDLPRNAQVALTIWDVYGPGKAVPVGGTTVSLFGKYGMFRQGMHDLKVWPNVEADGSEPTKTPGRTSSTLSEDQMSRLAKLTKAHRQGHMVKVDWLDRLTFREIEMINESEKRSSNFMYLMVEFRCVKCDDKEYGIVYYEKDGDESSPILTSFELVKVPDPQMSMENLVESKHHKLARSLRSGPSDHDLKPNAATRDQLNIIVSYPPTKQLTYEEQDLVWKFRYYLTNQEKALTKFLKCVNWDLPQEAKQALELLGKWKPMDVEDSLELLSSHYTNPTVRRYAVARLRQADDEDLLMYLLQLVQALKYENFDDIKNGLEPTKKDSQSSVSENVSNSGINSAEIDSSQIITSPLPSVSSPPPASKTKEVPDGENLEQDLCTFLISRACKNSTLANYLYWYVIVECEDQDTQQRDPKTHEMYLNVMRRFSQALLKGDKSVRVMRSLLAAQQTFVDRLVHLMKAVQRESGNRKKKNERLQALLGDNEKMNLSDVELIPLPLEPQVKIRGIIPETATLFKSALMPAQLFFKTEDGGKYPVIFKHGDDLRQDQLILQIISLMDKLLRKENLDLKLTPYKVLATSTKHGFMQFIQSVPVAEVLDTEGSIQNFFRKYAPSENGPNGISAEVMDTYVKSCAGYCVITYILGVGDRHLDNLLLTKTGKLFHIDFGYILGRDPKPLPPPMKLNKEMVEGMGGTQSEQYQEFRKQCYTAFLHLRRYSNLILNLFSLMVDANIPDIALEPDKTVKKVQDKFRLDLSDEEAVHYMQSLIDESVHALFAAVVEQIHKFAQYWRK

Sample 1
SMILES: CS(=O)(=O)CCNCc1ccc(-c2ccc3ncnc(Nc4ccc(OCc5cccc(F)c5)c(Cl)c4)c3c2)o1
Observed: enzyme activity
Action: inhibitor
Concentration: 0.5 µM
Baseline: control
Quantity: remaining activity
DAPK2 (Homo sapiens, UniProt Q9UIK4): 103%
Tyrosine-protein kinase Lyn, isoform B (LYN, Homo sapiens, UniProt P07948): 103%
NEK2 (Homo sapiens, UniProt P51955): 118%
TGFBR2 (Homo sapiens, UniProt P37173): 96.1%
GRK3 (Homo sapiens, UniProt P35626): 96.7%
CHEK2 (Homo sapiens, UniProt O96017): 96.8%
TGFBR1 (Homo sapiens, UniProt P36897): 101%
PRKACA (Homo sapiens, UniProt P17612): 96%
PRKCA (Homo sapiens, UniProt P17252): 83%
Cyclin-dependent kinase 5, with p25 (CDK5, Homo sapiens, UniProt Q00535): 90.4%
IKBKE (Homo sapiens, UniProt Q14164): 94.9%
CAMK2D (Homo sapiens, UniProt Q13557): 92.5%

Sample 2
SMILES: CC(=O)Nc1c(C(C)=O)c(=O)n(C)c2nc(-c3ccc(Cl)cc3Cl)c(-c3ccc(Cl)cc3)cc12
Observed: cell-free assay
Method: competition with immobilised ligand
Concentration: 1 µM
Quantity: remaining binding
PIK3C3 (Homo sapiens, UniProt Q8NEB9): 100%
CDK14 (Homo sapiens, UniProt O94921): 100%
CSNK1E (Homo sapiens, UniProt P49674): 100%
PIP4K2B (Homo sapiens, UniProt P78356): 91%
CAMK2B (Homo sapiens, UniProt Q13554): 100%
Macrophage colony-stimulating factor 1 receptor, autoinhibited (CSF1R, Homo sapiens, UniProt P07333): 100%
Tyrosine-protein kinase ABL1, phosphorylated (ABL1, Homo sapiens, UniProt P00519): 81%
SGK2 (Homo sapiens, UniProt Q9HBY8): 100%
VRK2 (Homo sapiens, UniProt Q86Y07): 100%
STK39 (Homo sapiens, UniProt Q9UEW8): 100%

Sample 3
Target: Ras GTPase-activating protein-binding protein 1, C-terminal RGG region (G3BP1, Homo sapiens, UniProt Q13283)
UniProt Q13283, sequence (whole entry, looked up): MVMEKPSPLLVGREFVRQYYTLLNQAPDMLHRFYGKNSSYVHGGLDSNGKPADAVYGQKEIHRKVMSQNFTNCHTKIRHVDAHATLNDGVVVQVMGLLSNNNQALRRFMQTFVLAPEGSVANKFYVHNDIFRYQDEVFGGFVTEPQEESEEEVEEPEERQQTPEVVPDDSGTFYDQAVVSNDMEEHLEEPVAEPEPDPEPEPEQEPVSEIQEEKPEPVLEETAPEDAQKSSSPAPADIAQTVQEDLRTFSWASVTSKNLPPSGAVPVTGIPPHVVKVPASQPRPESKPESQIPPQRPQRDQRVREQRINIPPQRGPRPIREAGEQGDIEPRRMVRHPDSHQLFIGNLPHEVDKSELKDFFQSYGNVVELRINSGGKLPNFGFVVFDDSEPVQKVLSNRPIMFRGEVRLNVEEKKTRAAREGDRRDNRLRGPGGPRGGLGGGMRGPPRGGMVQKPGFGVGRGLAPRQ
Method: RNA Bind-n-Seq
Molecule type: RNA
Sample: in vitro
Concentration: 1 µM
Setting: whole 134-nt RNA, ends assumed
With: 150 mM KCl
Baseline: input library
Reading: higher = stronger binding
Quantity: log2 enrichment
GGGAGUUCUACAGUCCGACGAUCAGUCCUGUGCUACACAUCGUAUGUACCGAAUCGGGGUUUGGGGUUUUUGGGGAGGGGAAAGUAUUAUGUUACGCCGUUCGGAUCUGCACUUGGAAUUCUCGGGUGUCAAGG: 2.41
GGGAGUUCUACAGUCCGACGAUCAAGUCCUGUGCUACACAUCGUAUGUACCGAAUCGGGGAGGGGUUUGGGGAAAGGGGAAAGUAUUAUGUUACGCCGUUCGGAUCUGCACUUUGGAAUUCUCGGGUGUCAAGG: 3.23
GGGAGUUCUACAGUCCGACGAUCCUCAGACAACACGCACCCACACAGACACAGAGGGAAGGGGUUGGGAUGGGGACAGGGUGCACAGCAGGGCGGGGUAGGACCCCAGCCCCUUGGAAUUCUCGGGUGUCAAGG: -0.237
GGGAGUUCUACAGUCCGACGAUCUGGGAGGUGGAUUUUGUUUAUUUUUUUAGCUCAUUUCCAGGGCUGGGAAUUUUUUUUUAAUAUGUGUCAUGAAUAAAGUUGUUUUUGAAAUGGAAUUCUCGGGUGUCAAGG: 2.82
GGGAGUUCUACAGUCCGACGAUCUCCUGUGCUACACAUCGUAUGUACCGAAUCGGCCCCCGGGGCCCCCGGGGCCCCCGGGGAAAGUAUUAUGUUACGCCGUUCGGAUCUGCAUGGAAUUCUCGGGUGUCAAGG: -1.95
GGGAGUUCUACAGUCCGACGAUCUCCUGUGCUACACAUCGUAUGUACCGAAUCGGAAAAAAAGGUUUUUUUGGAAAAAAAGGAAAGUAUUAUGUUACGCCGUUCGGAUCUGCAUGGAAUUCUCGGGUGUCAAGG: -1.58
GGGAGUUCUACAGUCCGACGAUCUCAAGUCCUGUGCUACACAUCGUAUGUACCGAAUCGGGUUUUUGGGUGGGUGGGAAAGUAUUAUGUUACGCCGUUCGGAUCUGCACUUCCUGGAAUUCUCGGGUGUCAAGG: 0.822
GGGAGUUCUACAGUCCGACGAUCCUGUGCUACACAUCGUAUGUACCGAAUCAAAUUUUUUUAAAUUUUUUUAAAUUUUUUUAAAAAAGUAUUAUGUUACGCCGUUCGGAUCUGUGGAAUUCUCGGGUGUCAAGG: -2.72

Single results of other studies
Method: cross-linking MS
TIMM13: TIMM13 (Homo sapiens, UniProt Q9Y5L4)
SIN3A (Homo sapiens, UniProt Q96ST3)  cross-linked residues (ING2 (Homo sapiens, UniProt Q9H160); cell fractions; with: DMTMM): K638 to E99
UQCC2 (Homo sapiens, UniProt Q9BRT2)  interaction screen (UQCC1 (Homo sapiens, UniProt Q9NVA1); hits only): cross-linked
TIMM8A (Homo sapiens, UniProt O60220)  interaction screen (TIMM13; hits only): cross-linked
TIMM8B (Homo sapiens, UniProt Q9Y5J9)  interaction screen (TIMM13; hits only): cross-linked

A few entries again (single results of other studies):
SIN3A (Homo sapiens, UniProt Q96ST3)  cross-linked residues (ING2 (Homo sapiens, UniProt Q9H160); cell fractions; with: DMTMM): K638 to E99
UQCC2 (Homo sapiens, UniProt Q9BRT2)  interaction screen (UQCC1 (Homo sapiens, UniProt Q9NVA1); hits only): cross-linked
TIMM8A (Homo sapiens, UniProt O60220)  interaction screen (TIMM13; hits only): cross-linked
TIMM8B (Homo sapiens, UniProt Q9Y5J9)  interaction screen (TIMM13; hits only): cross-linked
